# Measured values collected from several papers.
# Every numbered part comes from another study and shows a few of its results, in no order.

# Block 1 — method: protein-binding microarray; form: double-stranded DNA, one strand shown; matrix: in vitro; concentration: not given; reading: higher = stronger binding
# Target: Protein max, full length (MAX, Homo sapiens, UniProt P61244-2, residues 1-151)
# Notes: k-mer, scored over probes, only values ≥0.25
Sequence,E-score
ACATGGAC,0.291
CACGCGCA,0.442
CACGTGGA,0.497
ATGCACGA,0.295
GCTGCTCA,0.257
CACCTGTC,0.331
CGTGACCC,0.371
CATGGCCA,0.33
CACGTTGG,0.436
AGAGCGTG,0.379
AGGCATGC,0.408
GCGCACAC,0.288
GCATGCGA,0.39
ACTCATGG,0.3
ACCTGCTG,0.266
CATGGTCA,0.373
CGCCACCC,0.317
CATCGATG,0.273
ATGCGTGA,0.355
CGTGCAAG,0.335
ATACACGA,0.252
CACTCCAC,0.254
ACACGAGT,0.41

# Block 2 — method: RNA Bind-n-Seq; form: RNA; matrix: in vitro; concentration: 200 nM; notes: whole 134-nt RNA, ends assumed; added: 150 mM LiCl; baseline: input library; reading: higher = stronger binding; library: 7-deaza-guanosine replaces G
# Target: Ras GTPase-activating protein-binding protein 1, full length (G3BP1, Homo sapiens, UniProt Q13283)
# UniProt Q13283, sequence (whole entry, looked up): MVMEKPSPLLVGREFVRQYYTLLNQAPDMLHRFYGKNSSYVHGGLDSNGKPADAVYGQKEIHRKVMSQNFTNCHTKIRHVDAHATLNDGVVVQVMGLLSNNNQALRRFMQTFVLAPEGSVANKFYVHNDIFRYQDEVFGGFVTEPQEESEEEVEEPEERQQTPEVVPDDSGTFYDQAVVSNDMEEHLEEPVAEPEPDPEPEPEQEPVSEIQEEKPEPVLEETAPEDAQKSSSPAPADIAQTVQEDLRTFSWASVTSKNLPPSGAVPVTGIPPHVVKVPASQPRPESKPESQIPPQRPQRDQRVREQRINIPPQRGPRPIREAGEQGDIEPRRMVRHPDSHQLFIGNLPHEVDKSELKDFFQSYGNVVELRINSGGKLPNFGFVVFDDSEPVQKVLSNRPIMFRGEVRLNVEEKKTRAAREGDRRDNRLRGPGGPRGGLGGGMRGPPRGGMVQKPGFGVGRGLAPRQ
Sequence,log2 enrichment
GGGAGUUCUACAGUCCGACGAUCUUAUGGAGUUUGGCCCUGAGGACAUGCUGCUGGGCAUGGAUGAGGCUGAAGAUGAUGAGGACCUGGAGGCUGAGCUGCUGGCUCUCACAGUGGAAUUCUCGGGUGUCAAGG,-1.37
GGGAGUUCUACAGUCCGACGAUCUCAAGUCCUGUGCUACACAUCGUAUGUACCGAAUCGGGUUUGGUUUGGGUUUGGAAAGUAUUAUGUUACGCCGUUCGGAUCUGCACUUCCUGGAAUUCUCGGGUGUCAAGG,-0.427
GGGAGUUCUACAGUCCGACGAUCUUGUUUGAAACAGCAACGCUUCGGUCAGGGUAUCUUUUACCAGACACUAAAGCAUAUGGAGAUAGAAUAGAAAGAAUGCUUCGCCUCAGUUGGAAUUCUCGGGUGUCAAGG,-1.94
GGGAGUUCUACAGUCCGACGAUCACCAUGCAGGUGGGCAUCUUUGGGAAGUGGGGCAAGGGGGGGAUAGGGCGGGGGGUAACACUUUGGGAACAGGUGGUCCCAGGUCGUUUCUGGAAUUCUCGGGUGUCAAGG,0.206
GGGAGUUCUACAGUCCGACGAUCGUCCUGUGCUACACAUCGUAUGUACCGAAUCGGGGAAAGGGGAGGGGAAAAAAAGGGGAAAGUAUUAUGUUACGCCGUUCGGAUCUGCACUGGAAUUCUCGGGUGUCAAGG,0.683
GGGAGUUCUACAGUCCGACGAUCCCUGUGCUACACAUCGUAUGUACCGAAUCGGGUUUUUUGGGUUUUUUGGGUUUUUUGGGGAAAGUAUUAUGUUACGCCGUUCGGAUCUGCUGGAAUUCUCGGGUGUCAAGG,-0.553
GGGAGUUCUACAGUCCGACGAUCCUCAAGUCCUGUGCUACACAUCGUAUGUACCGAAUCGGAAAGGGAAAGGAAAGGAAAGUAUUAUGUUACGCCGUUCGGAUCUGCACUUCCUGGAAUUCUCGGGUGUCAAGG,-0.135
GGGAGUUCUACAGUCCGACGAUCUGGCCCUGGUGGCAUGCGGGGAGGAAGUGGUGGCCUCAUGGAUCGUGGUGGUCCCGGUGGAAUGUUCAGAGGUGGCCGUGGUGGAGACAGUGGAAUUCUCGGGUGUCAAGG,0.114
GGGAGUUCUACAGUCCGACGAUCGCAGGAAGUAAAAACAAAUGGAAAUGCUUUGGAUAGUGGCAGGGGUGGGGGUUGCUAAGGAAAGGGUGGGAUGGGAGUGGGUAAAGAGUUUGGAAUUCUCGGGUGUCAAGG,0.169
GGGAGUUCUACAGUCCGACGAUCCUGUGCUACACAUCGUAUGUACCGAAUCGGGGUUUUUUUGGGUUUUUUUGGUUUUUUUGGGAAAGUAUUAUGUUACGCCGUUCGGAUCUGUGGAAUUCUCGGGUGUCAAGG,1.1
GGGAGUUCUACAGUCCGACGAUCCCUGUGCUACACAUCGUAUGUACCGAAUCGGGAAAAAAAGGAAAAAAAGGGGAAAAAAAGGAAAGUAUUAUGUUACGCCGUUCGGAUCUGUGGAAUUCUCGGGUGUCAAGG,0.0831

# Block 3 — method: RNAcompete; form: RNA; matrix: in vitro; concentration: 20 nM; notes: 7-mer, probes averaged, single round; baseline: mean of 7-mers; reading: higher = stronger binding
# Target: PABPC1L2, full length, GST fusion (mouse, UniProt A0ABA7IW68)
# Construct (chain): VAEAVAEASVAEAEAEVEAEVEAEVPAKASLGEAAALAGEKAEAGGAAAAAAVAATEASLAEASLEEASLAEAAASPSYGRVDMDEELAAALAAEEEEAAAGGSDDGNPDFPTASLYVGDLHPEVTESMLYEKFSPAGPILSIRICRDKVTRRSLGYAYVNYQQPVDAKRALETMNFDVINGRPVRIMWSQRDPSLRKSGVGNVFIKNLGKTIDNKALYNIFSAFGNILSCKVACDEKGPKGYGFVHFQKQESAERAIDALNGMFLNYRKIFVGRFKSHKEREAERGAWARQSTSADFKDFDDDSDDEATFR
Sequence,7-mer Z-score
GAGGUCA,-0.0319
AUAUUAC,-0.0736
GAAAUAG,1.35
AAGACAG,0.378
CCGCAUC,-0.135
GCAACCA,0.0406
GCUUAAU,-0.277
UACCAAA,0.517
CGAGUAG,-0.101
GCGAUGU,-0.217
GUGACUU,-0.277
AAUUCGU,-0.168
CGUUGCU,-0.291
UCAUUGA,-0.206
CCAGACA,0.0623
CCAAAAU,1.09
CAAUAGA,0.189
UGGUAAC,-0.108
GUUGGCC,-0.324
CGGCGUA,-0.171

# Block 4 — method: RNA Bind-n-Seq; form: RNA; matrix: in vitro; concentration: 365 nM; baseline: no-protein control; reading: higher = stronger binding
# Target: RNA binding protein fox-1 homolog 2, RRM domain, GST-SBP tag (RBFOX2, Homo sapiens, UniProt O43251-10, residues 100-194)
# Notes: natural RNA segment, single round, ends assumed
# Target sequence (chain): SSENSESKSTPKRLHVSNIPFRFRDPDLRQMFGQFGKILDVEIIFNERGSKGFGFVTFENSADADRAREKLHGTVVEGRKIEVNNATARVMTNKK
Sequence,RBNS enrichment (R)
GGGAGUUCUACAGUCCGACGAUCAGGACCUGGAGUCCUGGGGAGAGAAGGUGGGGAGGCUUGAGGCCUUUCUCUACUCCUCUCCCUCAGUCCUGAGACACUAAGAUCCCCUGGGCCAAGUCAGUUGGAGGCUGUGGAAUUCUCGGGUGCCAA,0.259
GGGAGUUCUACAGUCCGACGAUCAACUACUUAGCACUUCAGGGCAGAUUUUAGUUUUAUUUUCUAAAGUACUGAGCAGUGAUAUUCUUUGUUAAUUUGGACCAUUUUCCUGCAUUGGGUGAUCAUUCACCAGUUGGAAUUCUCGGGUGCCAA,0.705
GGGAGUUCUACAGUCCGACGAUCCAUGGAUCCAACCCAGGUCACAGGCCUGGGACUUGGUACCCUGGUUGGACACUCCUGAGACUCCAAGUCUGGCUUUCAGUUCAGUUUUCAUCUGUGUUGACAUCGGGGCCUGGAAUUCUCGGGUGCCAA,0.217
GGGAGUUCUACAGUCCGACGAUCGGGGUUUUUUCCCUACUCAAGCAUUCGGAGACACUUUCUGUAAAUGUUAACCUUUAUGUCAGCCAUCGUCAGUUUCAACAUCUAGACCUAAAUAGAAAGUUAGCUGUUCCUGGAAUUCUCGGGUGCCAA,0.311
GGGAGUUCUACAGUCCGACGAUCUUAAUUAUUAAAGUGCUCCAAAAUGAAAGUUAAGUUUAAUGUCUGUCCUUUCCUUCUAAUUUUAGAAGUUCUGUUGAGAAACACAAACUGCAAAUUUAAGUCAGCAUUUUUGGAAUUCUCGGGUGCCAA,0.683
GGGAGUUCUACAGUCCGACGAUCCACUUUGGGUGGGUGAGGCAGGCGGAUCACUUGAAGCCAGGACUUCAAGACCAGCUUGGCCAACAUGGUGAAACCUCAUCUCUACUAAAAAUACAAAAAUUAGCCAAGUGUGGAAUUCUCGGGUGCCAA,0.365
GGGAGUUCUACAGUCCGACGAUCAGCUUAGAUACCAUGUAGUGGUCUGUGGCUACAGGAAGCUGGUUCUGUCUGCUUCCACAGUCUGCUUAAAAAACUGUCUGACUUCGUGAAUAUAGAGACCAAGUUUACCAUGGAAUUCUCGGGUGCCAA,0.315
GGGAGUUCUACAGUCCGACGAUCGUGUUAAUAAUUGUUCUGAUGAAUCAUACAGUUGAAAUAAAGUGACGUAACAUCUUGUAUACUGUGAGUUGGCUGUAGCUAGUCCUGCUUGAUUACCUACCUCAUUUACAUGGAAUUCUCGGGUGCCAA,0.54
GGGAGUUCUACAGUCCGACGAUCUACCACUUCUGCUGAGGAGACCACUUAAAAUUCAUUCCUGAGUUUCCACUGUGGGAGAAUACCCAUGGAAUAAGAUAAAAAAUUAAUUCCACACCCUAGUGUGUGUAAGUUGGAAUUCUCGGGUGCCAA,0.338
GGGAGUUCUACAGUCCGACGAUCCUCGAGGGGUAGCUGUCUCCUGCAGAGACAAGAGCCGAAGCACUGGUCUCAUUGAAGACGACACGUACUACCCCAUAAGCUAGUAAGCCAGCAAGAAAGGCCAUGCCACCUGGAAUUCUCGGGUGCCAA,0.246
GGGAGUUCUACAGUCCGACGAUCUUUUUUCUUGCAUUGACAUUAUUGACGUUGAGGACCUCAUCAGAUCAAUUUAAAAGUGAGUGUGGAAGGGAAACGAAAGUCAACAUAUUUUUAAAAGAUCUUAAAAAUAAUGGAAUUCUCGGGUGCCAA,0.301
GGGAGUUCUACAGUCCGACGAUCAUUAUCUGGGCAUUUCCUUAUUUAUUUACAUUGAAUUCAUAUGUUCUCACCUUUUUAAAAAUUUCCAUACAACUUGAGAAUUAGGUAAGUUCCUUUGUAUACAAAUUUCAUGGAAUUCUCGGGUGCCAA,0.578

# Some of these lines once more (block 3):
Sequence,7-mer Z-score
GCGAUGU,-0.217
GUGACUU,-0.277
AAUUCGU,-0.168
CGUUGCU,-0.291
UCAUUGA,-0.206
CCAGACA,0.0623
CCAAAAU,1.09
CAAUAGA,0.189
UGGUAAC,-0.108
GUUGGCC,-0.324
